Experimental data collected from several papers.
Parts stem from different laboratories: compare values within a part only. Changes are numbered by the printed parent chain.

Series 1
Target: RNA binding protein fox-1 homolog 2, RRM domain, GST-SBP tag (RBFOX2, Homo sapiens, UniProt O43251-10, residues 100-194)
Technique: RNA Bind-n-Seq
Form: RNA
Sample: in vitro
Tested at: 365 nM
Setting: natural RNA segment, single round, ends assumed
Baseline: no-protein control
Reading: higher = stronger binding
Target sequence (chain): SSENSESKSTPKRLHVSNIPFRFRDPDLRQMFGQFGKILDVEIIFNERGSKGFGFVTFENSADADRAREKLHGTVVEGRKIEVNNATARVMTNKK
Under “RBNS enrichment (R)”, `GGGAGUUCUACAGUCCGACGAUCACUGUCUCCAGACAGCAGGGCCCUUUGUCUCUGAGAAAUUAGCCAUCCAGAAUAGAAUCUGUAACAAGAGACAUGGGACAUAAGCCAGAGAACUCAAACAGCCCUUUAAAUGGAAUUCUCGGGUGCCAA` is recorded as 0.328.
`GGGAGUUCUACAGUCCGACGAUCAAGGGUUAAUCCCUCUUUGUUCCAAGCAGAAGCAUUCUGGCAUCCCAGUGAAGAGCUCAGGCCCUCAGGAAGUGUCUGCUGAAUGGAAUGGCCCAGCAUUAGCCCAGUAUUGGAAUUCUCGGGUGCCAA`: “RBNS enrichment (R)” 0.344.
`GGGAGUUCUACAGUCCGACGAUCCGGAGUGCAGUGGUGCAAUCUCAGCUCACUGCAACCUCCACCUCCUGGGUUCAAGCAAUUCUCCUGCUUCAGCCUCCCGAGUAGCUGGGAUUACAGGUGUGUACCACCACUGGAAUUCUCGGGUGCCAA` — result for “RBNS enrichment (R)”: 0.208.
`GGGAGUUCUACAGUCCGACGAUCAGAGCCCCUGGCACAACUCUAGCAUAUCUGUGAGCAGCUGUUCCCUGUAGCCACUGCCCAGCACCUCCUCAGGCCAGCCUGGUGCCACAGUCACGUGGGGGAAGACCUCAUGGAAUUCUCGGGUGCCAA` — result for “RBNS enrichment (R)”: 0.347.
`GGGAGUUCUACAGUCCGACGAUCUCACUGAAGGCUGUGAGUUGCUUUCAAUGUGACAACACUAUGAUGUCAUUUGGAAGGAUUUGCCAGGACAGACUGAUUCUGAGUCCUGGGUGCCGUAUGUGUAUGCGGCAUGGAAUUCUCGGGUGCCAA`: “RBNS enrichment (R)” 0.36.
`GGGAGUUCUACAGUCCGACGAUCACUUAGAAAUACACGUAUGGUUAAUGUUCAGUCCAACAAACCACACACAGUAAAUGUUUAUUAAUAGUCAUGGUUCGUAUUUUAGGUGACUGAAAUUGCAUCAGUGAUCAUGGAAUUCUCGGGUGCCAA` — result for “RBNS enrichment (R)”: 1.91.
For `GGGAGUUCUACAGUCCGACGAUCGUGUAUAUUGGUGUAUAUUAUAUAACUCUUUGAGCCUUUAUUGGUAAAUUCUGGUAUACAUUGAAUUCAUUAUAAUUUGGGUGACUAGAACAACUUGAAGAUUGUAGCAAUGGAAUUCUCGGGUGCCAA`, “RBNS enrichment (R)” read 0.528.
Under “RBNS enrichment (R)”, `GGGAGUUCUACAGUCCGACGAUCCAGGCCUCUUGUCCUCUCCCCAGUGGCUCCAGGCCUCACUAGUGGCAAGGGCAGGAUGAGGCUGCACCGCUGGGAAGAGUCUAUCUAAGCUCUUGGCUUGGAGUCCCGUGUGGAAUUCUCGGGUGCCAA` is recorded as 0.497.

Series 2
Target: POU domain, class 5, transcription factor 1, POU domain (Pou5f1, Mus musculus, UniProt P20263, residues 131-289)
UniProt P20263, sequence (131-289, looked up): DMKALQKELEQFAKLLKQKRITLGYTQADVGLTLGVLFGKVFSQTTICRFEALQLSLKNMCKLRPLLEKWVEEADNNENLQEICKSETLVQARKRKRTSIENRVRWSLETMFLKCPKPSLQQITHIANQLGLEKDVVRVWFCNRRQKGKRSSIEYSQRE
Technique: Spec-seq
Form: double-stranded DNA, one strand shown
Sample: in vitro
Tested at: not given
Setting: whole probe, mean of replicates
Baseline: not given
Reading: lower = stronger binding
All sequences stand within: GAGTCGTCTCGTCAGCAC … CCGTAGAGCACTCAGGTC
`ATTCATAT` — result for “relative binding energy”: -0.704 ln ratio.
For `ATGCCATT`, “relative binding energy” read 0.376 ln ratio.
`ATGCTGAA` — result for “relative binding energy”: 0.39 ln ratio.
`CGGCTAAT`: “relative binding energy” 0.854 ln ratio.
`ATAGCTAT` — result for “relative binding energy”: 0.452 ln ratio.
Under “relative binding energy”, `CTAGTAAT` is recorded as 0.693 ln ratio.
For `ATGCTAGT`, “relative binding energy” read 0.368 ln ratio.
`ATGCAGTC` — result for “relative binding energy”: 0.367 ln ratio.

Series 3
Target: Hepatocyte nuclear factor 3-alpha (Foxa1, Mus musculus, UniProt P35582, residues 1-468, full length assumed)
UniProt P35582, sequence (whole entry, looked up): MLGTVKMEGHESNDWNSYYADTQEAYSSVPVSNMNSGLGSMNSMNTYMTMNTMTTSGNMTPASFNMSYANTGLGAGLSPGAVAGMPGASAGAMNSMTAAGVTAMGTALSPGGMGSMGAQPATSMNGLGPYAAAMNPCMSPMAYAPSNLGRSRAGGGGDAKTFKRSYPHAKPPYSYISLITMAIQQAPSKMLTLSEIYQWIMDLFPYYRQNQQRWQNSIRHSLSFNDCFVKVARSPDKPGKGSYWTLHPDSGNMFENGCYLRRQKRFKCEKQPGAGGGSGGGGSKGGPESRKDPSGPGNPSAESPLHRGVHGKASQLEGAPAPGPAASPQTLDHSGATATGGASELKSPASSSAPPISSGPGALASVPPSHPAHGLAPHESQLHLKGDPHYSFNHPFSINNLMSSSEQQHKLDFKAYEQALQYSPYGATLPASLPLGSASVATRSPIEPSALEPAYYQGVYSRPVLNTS
Technique: EMSA with sequencing
Form: double-stranded DNA, one strand shown
Sample: in vitro
Tested at: 10 and 20 nM
Setting: whole designed probe, mean of two concentrations, ends assumed
Baseline: negative control set to 0
Reading: higher = stronger binding
For `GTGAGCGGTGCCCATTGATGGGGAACCGCATTAGCAGGGAAAGAAAAGGTACTGGCATGTACTGAACCCCATTCACCAGGCACTTTGTCAGGTCCTTCTTACAGGGGATTGCATCAGAGTAAACAAGGGACCAGAATCAAACTACTAACTCAACCTACTGATATTCAAAGTAAATATTGATTACGGATATAGAAAGTCATTATTCCATATAGTATATTATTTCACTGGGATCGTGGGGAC`, “normalised bound fraction” read 0.438 ratio.
`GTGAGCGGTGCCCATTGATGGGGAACTTTCCAGCCCTTAGTTTCTGGCATTTAACCTGACTCTGGTCCCTGAATGGCATGGGAGTGCTTTCAACCACAGGTTTCCACATTCATGCAAAAGCAAACAAGTGCTGACTCATTCTGATCTACAGAGATCTTTATTTGCTTTGTGTTTCCAATGGAGAAAGAGCTTGGGAAGGGAGGATCCTAATTGTCTAAATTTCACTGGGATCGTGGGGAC` — result for “normalised bound fraction”: 0.484 ratio.
Under “normalised bound fraction”, `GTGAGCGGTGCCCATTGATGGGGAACTAACCGGAGCGTGCACACCCGCCTGCGAGGCTGACCCGAGCGCGTCCCACCCAAGGTCGCCCAGCCCCGCGGGCGTTTACTTTTCAAAGGTCGAGAGTACACAGTCTGAGCCGGAGCTGCCCCTTCACTTCTGGAGCCTCGCCCAACTTCTCACCCTCGGCTCGCCCGCCGGCGCAGCCCCTGGGAGTTCCGTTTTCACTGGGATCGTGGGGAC` is recorded as 0.0324 ratio.
`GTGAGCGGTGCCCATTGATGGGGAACCTCCTACTGATTGCCATATTTCTTTCACAGGATAACATAAGATTGGGTCAGCAGAATGGTGTTAACAAGATTATTTTGAGTGACTCACTCACAGCAATCTATGGTTGAGTTCAGGACTCTGGGCTGCCCAATGGTCCACTGCCAACTCTTAGGTTTAGACTTGGTGTGCAAGCCTGGTGTGCACTGGCTTTCCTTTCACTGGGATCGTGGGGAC`: “normalised bound fraction” -0.0681 ratio.
Under “normalised bound fraction”, `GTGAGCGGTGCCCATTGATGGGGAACCAGTTTTGCAAAGACGGAGTCCGTCAGAGAAAGCATTTGTTTGATTTCATGCATTTGTGTTTCCTTTGTCCATTTCCTTTATATTTATTTATTAGATTATTTATTTTTTTGAGACGGAGTTTCGATCCTCTCGCCCAGGCTGGAGTGCAATATCGCGATCTCGGCTCACTGCAACCTCCCCCTCCCGGGTTCATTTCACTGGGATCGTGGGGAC` is recorded as 0.378 ratio.

Series 4
Target: CCNA2, cyclin fold, Cln2 fusion (human)
Technique: yeast growth competition, sequencing
Sample: yeast
Setting: strong parent motif
Baseline: not given
Reading: higher = stronger binding
Starting sequence: viral docking peptide; CKVKRKLFGSENI
`R5K F8L`: “normalised enrichment score” 0.763.
`G9A` — result for “normalised enrichment score”: 5.6.
`S10A` — result for “normalised enrichment score”: 5.3.
Under “normalised enrichment score”, `F8A` is recorded as 1.22.
`K2A` — result for “normalised enrichment score”: 4.16.
Under “normalised enrichment score”, `L7A` is recorded as 0.931.
For `K6A`, “normalised enrichment score” read 4.66.

A few entries again (series 2):
`CGGCTAAT`: “relative binding energy” 0.854 ln ratio.
`ATTCATAT` — result for “relative binding energy”: -0.704 ln ratio.
Under “relative binding energy”, `CTAGTAAT` is recorded as 0.693 ln ratio.
